Assay results of several laboratories.
A part holds a random share of what one study measured. Positions count from the first letter of the parent shown.

Set 1
Target: CCND2, cyclin fold, Cln2 fusion (human)
Method: yeast growth competition, sequencing
Medium: yeast
Setting: weak parent motif
Relative to: not given
Direction: higher = stronger binding
Parent: PKMYT1 docking peptide (human); SFEPRNLLSLFED
For `SFVPRNLLSLFED [E3V]`, “normalised enrichment score” read 0.317.
`SREPRNLLSLFED [F2R]`: “normalised enrichment score” 0.175.
For `AFEPRNLLSLFED [S1A]`, “normalised enrichment score” read -0.0121.
For `SFEPRLLLSLFED [N6L]`, “normalised enrichment score” read 0.311.
For `SFEPRNLLSLFDD [E12D]`, “normalised enrichment score” read 0.0829.
`SFDPRNLLSLFED [E3D]`: “normalised enrichment score” 0.191.
For `SFEPRNLLSLCED [F11C]`, “normalised enrichment score” read -0.148.
Under “normalised enrichment score”, `SFEPRNLPSLFED [L8P]` is recorded as 0.0481.
For `SFEPRNLLNLFED [S9N]`, “normalised enrichment score” read 0.118.
For `SFEPDNLLSLFED [R5D]`, “normalised enrichment score” read 0.0956.
Under “normalised enrichment score”, `SFEARNLLSLFED [P4A]` is recorded as 0.17.
Under “normalised enrichment score”, `SFEPRNLLSRFED [L10R]` is recorded as -0.177.
`SFIPRNLLSLFED [E3I]` — result for “normalised enrichment score”: -0.147.
`SFEPMNLLSLFED [R5M]` — result for “normalised enrichment score”: 0.308.
For `SFEHRNLLSLFED [P4H]`, “normalised enrichment score” read 0.0426.
`SFEPANALSLFED [R5A L7A]` — result for “normalised enrichment score”: 0.1.
Under “normalised enrichment score”, `SFKPRNLLSLFED [E3K]` is recorded as 0.0844.
Under “normalised enrichment score”, `SFEPRNPLSLFED [L7P]` is recorded as 0.0935.
For `SFEPRNLLELFED [S9E]`, “normalised enrichment score” read 0.00211.
For `SFEERNLLSLFED [P4E]`, “normalised enrichment score” read 0.207.
Under “normalised enrichment score”, `SFSPRNLLSLFED [E3S]` is recorded as -0.246.
`SFEPKNLLSLLED [R5K F11L]`: “normalised enrichment score” -0.143.
`SFEPRHLLSLFED [N6H]` — result for “normalised enrichment score”: 0.21.
Under “normalised enrichment score”, `SFEPRNLYSLFED [L8Y]` is recorded as 0.122.
`SFEPRNLLSKFED [L10K]`: “normalised enrichment score” -0.0483.

Set 2
Target: Sal-like protein 4, full length isoform A (SALL4, Homo sapiens, UniProt Q9UJQ4, residues 1-1053)
Sequence of UniProt Q9UJQ4 (whole entry, looked up): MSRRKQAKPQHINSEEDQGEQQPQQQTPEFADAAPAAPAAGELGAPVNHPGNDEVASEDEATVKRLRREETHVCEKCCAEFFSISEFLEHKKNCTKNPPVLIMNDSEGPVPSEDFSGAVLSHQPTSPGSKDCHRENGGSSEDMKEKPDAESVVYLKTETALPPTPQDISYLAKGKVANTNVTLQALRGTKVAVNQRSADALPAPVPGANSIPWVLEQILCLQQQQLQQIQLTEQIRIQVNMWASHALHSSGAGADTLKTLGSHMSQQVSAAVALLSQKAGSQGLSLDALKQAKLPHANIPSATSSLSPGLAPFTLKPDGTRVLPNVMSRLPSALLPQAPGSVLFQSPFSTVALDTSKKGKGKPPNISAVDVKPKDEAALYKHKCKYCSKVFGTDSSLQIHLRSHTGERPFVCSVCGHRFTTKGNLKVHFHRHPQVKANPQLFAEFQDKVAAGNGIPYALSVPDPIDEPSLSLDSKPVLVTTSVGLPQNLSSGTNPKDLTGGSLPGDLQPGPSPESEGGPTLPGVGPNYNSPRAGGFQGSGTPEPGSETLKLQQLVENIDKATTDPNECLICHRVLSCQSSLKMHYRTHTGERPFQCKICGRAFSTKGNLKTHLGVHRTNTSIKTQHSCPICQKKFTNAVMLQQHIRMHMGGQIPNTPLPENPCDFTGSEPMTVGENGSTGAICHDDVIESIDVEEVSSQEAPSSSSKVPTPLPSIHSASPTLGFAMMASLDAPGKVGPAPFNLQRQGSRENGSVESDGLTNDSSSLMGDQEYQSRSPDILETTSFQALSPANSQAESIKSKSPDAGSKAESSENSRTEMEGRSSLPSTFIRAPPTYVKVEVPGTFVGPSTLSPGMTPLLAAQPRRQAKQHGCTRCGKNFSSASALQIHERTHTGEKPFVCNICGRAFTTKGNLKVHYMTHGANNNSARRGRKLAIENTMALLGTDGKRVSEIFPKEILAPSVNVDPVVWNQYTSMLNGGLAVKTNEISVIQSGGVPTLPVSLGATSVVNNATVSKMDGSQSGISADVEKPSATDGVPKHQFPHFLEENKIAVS
Method: universal PBM
Form: double-stranded DNA, one strand shown
Medium: in vitro
Concentration: 600 nM
Setting: 8-mer, flanks averaged, mean of replicates
Direction: higher = stronger binding
For `TGAGGCAA`, the E-score was -0.00396.
`TTCGTAAA` gave an E-score of 0.282.
`AGCTGCGC` has an E-score of -0.217.
`CGTAATCC` gave an E-score of -0.0965.
`TCGCTACA` gave an E-score of -0.15.
The E-score of `AGTCAAAA` is reported as 0.142.
`AAGCAACT` has an E-score of 0.117.
`CCACCACA` gave an E-score of -0.00307.
The E-score of `CGGATCAG` is reported as -0.195.
`CCCGAGCG` has an E-score of -0.293.
`CCATACGG` gave an E-score of -0.0993.
With `CGGACATA` the E-score was 0.0821.
`TATCGGAA` gave an E-score of 0.256.
`AACGTGTG` has an E-score of 0.0761.
With `GAATGGTC` the E-score was -0.187.
With `AAGTTGGG` the E-score was -0.156.
With `GTCATCGA` the E-score was 0.047.
`GAAAAAGC` has an E-score of 0.0153.
The E-score of `ACGACATC` is reported as -0.184.
The E-score of `AAATGTGG` is reported as 0.19.
With `AGGTCCCA` the E-score was -0.181.
The E-score of `AGGACGCC` is reported as -0.328.

Set 3
Target: Prothrombin, mature alpha-thrombin (F2, Homo sapiens, UniProt P00734)
Method: aptamer microarray, sandwich
Form: DNA with 2'F-ANA
Medium: in vitro
Concentration: 200 nM
Setting: whole 15-mer aptamer, many near background
With: Cy3 exosite-II aptamer, 400 nM
Direction: higher = stronger binding
Strand: GGTTGGTGTGGTTGG
For `2'F-ANA at 1 2 5 6 8 11 13 14 15`, “mean fluorescence intensity” read 50.1 a.u.
Under “mean fluorescence intensity”, `2'F-ANA at 1 2 4 5 7 8 10 11 12 13 14` is recorded as 44.7 a.u.
For `2'F-ANA at 1 2 5 6 7 8 11 12 13 15`, “mean fluorescence intensity” read 98.5 a.u.
Under “mean fluorescence intensity”, `2'F-ANA at 1 4 5 7 11 12 14 15` is recorded as 45.7 a.u.
Under “mean fluorescence intensity”, `2'F-ANA at 1 2 3 4 5 7 10 11` is recorded as 46.7 a.u.
`2'F-ANA at 1 2 3 4 7 8 12 14`: “mean fluorescence intensity” 112 a.u.
`2'F-ANA at 1 4 5 7 10 11 12 14 15` — result for “mean fluorescence intensity”: 46.2 a.u.
For `2'F-ANA at 5 7 10 13 14 15`, “mean fluorescence intensity” read 42.7 a.u.
`2'F-ANA at 1 2 4 6 8 10 12 14` — result for “mean fluorescence intensity”: 156 a.u.
For `2'F-ANA at 2 3 4 5 6 9 12 14`, “mean fluorescence intensity” read 68.6 a.u.
Under “mean fluorescence intensity”, `2'F-ANA at 2 3 4 5 6 7 8 10 11` is recorded as 54.6 a.u.
For `2'F-ANA at 3 5 7 10 11 14 15`, “mean fluorescence intensity” read 63.6 a.u.
Under “mean fluorescence intensity”, `2'F-ANA at 1 3 4 6 8 9 10 15` is recorded as 59.4 a.u.
`2'F-ANA at 2 5 6 11 14` — result for “mean fluorescence intensity”: 45.6 a.u.
`2'F-ANA at 1 7 8 9 10 11 15`: “mean fluorescence intensity” 55.1 a.u.
Under “mean fluorescence intensity”, `2'F-ANA at 3 4 5 6 8 9 10 12 13` is recorded as 50.4 a.u.

Further values, each from its own experiment
For `PhoQ, residues 284 288 289 292 302 303 NLAAMI`, the fold induction was 15.5 (PhoP, residues 12 14 15 18 19 VQALL (Escherichia coli, UniProt P23836); Sort-seq, measured: YFP reporter; E. coli; PhoQ-PhoP variant library, with: 10 µM Mg2+; relative to: high Mg2+ state, higher = stronger signaling).

Repeated from above (set 3):
`2'F-ANA at 1 2 4 6 8 10 12 14` — result for “mean fluorescence intensity”: 156 a.u.
Under “mean fluorescence intensity”, `2'F-ANA at 3 4 5 6 8 9 10 12 13` is recorded as 50.4 a.u.
For `2'F-ANA at 3 5 7 10 11 14 15`, “mean fluorescence intensity” read 63.6 a.u.
Under “mean fluorescence intensity”, `2'F-ANA at 1 2 4 5 7 8 10 11 12 13 14` is recorded as 44.7 a.u.
`2'F-ANA at 1 7 8 9 10 11 15`: “mean fluorescence intensity” 55.1 a.u.
Under “mean fluorescence intensity”, `2'F-ANA at 1 2 3 4 5 7 10 11` is recorded as 46.7 a.u.
`2'F-ANA at 1 2 3 4 7 8 12 14`: “mean fluorescence intensity” 112 a.u.
Under “mean fluorescence intensity”, `2'F-ANA at 2 3 4 5 6 7 8 10 11` is recorded as 54.6 a.u.
For `2'F-ANA at 5 7 10 13 14 15`, “mean fluorescence intensity” read 42.7 a.u.
